Measurements gathered from unrelated publications.
Every numbered part comes from another study and shows a few of its results, in no order.

Block 1 — technique: protein-binding microarray; form: double-stranded DNA, one strand shown; sample: in vitro; tested at: 940 nM top; notes: 60-bp whole probe; together with: salmon DNA 0.4 mg/ml; relative to: random background probes; direction: higher = stronger binding; endpoint: fitted relative affinity; constant ends, left off below: GCCTAGCAC … GTCTTGATTCGCTTGACGCTGCTG
Target: Interferon regulatory factor 5, full length, phosphomimetic (IRF5, Homo sapiens, UniProt Q13568-2, residues 1-514, S451D/S453D/S456D/S462D)
Sequence = TTAGATTTCCGTATCGATTAGTGCTAG; value = 3.06 z-score
Sequence = GGCGGTCTCCTACTGCTGACGTGCTAG; value = -0.448 z-score
Sequence = TTAGATTTCGGATATCGATTAGTGCTA; value = 0.907 z-score
Sequence = TTTGGTATCGACTATCGGTTAGTGCTA; value = 9.27 z-score
Sequence = TTAGATTTCAGTTCCGCTTAGTGCTAG; value = 1.72 z-score
Sequence = TTAGGTGCCGGTTTCGGTTAGTGCTAG; value = 7.11 z-score
Sequence = TTAGGAGTGGGGTATCGGTTAGTGCTA; value = 2.98 z-score
Sequence = TTGGGACTGGACTATCGGTTAGTGCTA; value = -0.203 z-score
Sequence = CACGGTTTCGGACTGGGGACGTGCTAG; value = 5.52 z-score
Sequence = GGAGAAAAATCATGAAAATAGTGCTAG; value = -0.218 z-score
Sequence = GACGGTTTCCTTCTCCTGAGGTGCTAG; value = 1.21 z-score
Sequence = TTAGGTATCCTAGTGCTTTAGTGCTAG; value = -0.317 z-score
Sequence = TTAGAACTGAGACTGCATTAGTGCTAG; value = -0.109 z-score
Sequence = GACGGTATCTGACTGGGGACGTGCTAG; value = 0.119 z-score
Sequence = TTACATATCAGTCTCGATTAGTGCTAG; value = 3.62 z-score
Sequence = GACGGTATCGACTTTCGAGACGTGCTA; value = 4.15 z-score

Block 2 — technique: RNA Bind-n-Seq; form: RNA; sample: in vitro; tested at: 365 nM; relative to: no-protein control; direction: higher = stronger binding; endpoint: RBNS enrichment (R)
Target: RNA binding protein fox-1 homolog 2, RRM domain, GST-SBP tag (RBFOX2, Homo sapiens, UniProt O43251-10, residues 100-194)
Notes: natural RNA segment, single round, ends assumed
Constant ends, left off below: GGGAGUUCUACAGUCCGACGAUC … UGGAAUUCUCGGGUGCCAA
Residues (chain): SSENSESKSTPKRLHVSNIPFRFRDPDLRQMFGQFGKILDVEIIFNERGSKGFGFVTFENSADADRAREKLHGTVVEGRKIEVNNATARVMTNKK
Sequence = AAGCGAUUCUCCUACCUCAGCCUCCUCAGUAGCUGAGAUUACAGGCAUGCACCACCAUGCCCGGCUAAUUUUUUUGUGUUUUUAGUAGAGAUGGGGUUUCACCGUGCUGG; value = 0.748
Sequence = CAGGUGGUAGUCACAUCACCAGAGUGAUCAGUAUAAAUUUUCUUGGUGUAUCCUUUUCCUUUCAACACAGUGCAGAUAAGAGUUGAAUAUUGAUAUCAUACAUUUAGACU; value = 0.463
Sequence = UCCAUAAUUGUCUUUGGGGGAUUCCACCACACCCAAUGCUCUGGAGCCACAAGGAGUGUCCCUUCUUCCCCAGCAGAGCCGUGGGAGGGUCCUUGUCUGCUCUCCUUUGA; value = 0.482
Sequence = UAGAGACAGAGUCUCCCUCUGUUGCCCAGGCUGGUCUGGAACUCCUAGCUUCAAAUGAUCCUCUCACCUCGGCCUCCCAAAAUCCUGGGAUUCCAGGCGUCAGCCACUGC; value = 0.605
Sequence = UAGUAGAUGCUGUCCUAUAUACCUAUUAAAAAUGCCAAACACUGAUAACAUUGAACAUGUUCAUAUUGAUAGAGAUAAUAUUGUAUAGGUCUAGUGUGUAUGGAUCUGGG; value = 0.329
Sequence = UCCUGACAAAUCUGAUUUUUCUAGAAUCCUGUUCUUCCCUCACCUUAGGGAAGGAGAAUGUUUGUCCUGUCUCCCUACACUUCCCUGAGGGCUUCUUCCUACCAAAGUGU; value = 0.35
Sequence = UCAGACACCAGCAACAGCCUCUUGGGAUGCCCUGAGUUGCUUCCCAUUUCCUCUUUCUAGCCGUCCUUUUCUAGUGUGUGCUCACUCUUCCUAGGAACUUUUAAGACUUC; value = 0.276
Sequence = AUAAUUGGCGGCUGUAACUACCUUCACGUGCUCCUCUUAUACACAGACUCUCCAGGACUGAGGACAGAGCUGCUCUUCUUCUUCUACGUUACUGUGGCCCUCUUGUCUGG; value = 0.355
Sequence = CCCAGAGGUCACUUAGGACUGAGAUGCUCCAAAGUUUGAAGUGCCAAAUAACAUGAAACGUGCUCUGUCGACUCAAUAUUAAAGCCAGGGUGAAGAGUUGCAAACCCCUC; value = 1.02
Sequence = AAGAAGAGGCCUGGUAAUGGCCCCUCCUCCUGGGACCCCUUCGUCCUCUCCUUACCCCACCUCCUGGGUACAGCCCAGGAGGACCUUGUGUGAUCAGACCAUUGAAACCA; value = 0.176
Sequence = UUAAAGACACGCACAGUCCCUUCCAUUGUCCCACAGGAGUUCCUCUGGCUGAGUAUGCCAUCCAGAGCAAGCGAUGCCCUCCCAGGUCAGUCUGGGGCACAAGCUGAGCC; value = 0.244
Sequence = CAGCAGCUUCGCACAAUACCAAAGUUUUAAAGUUGGUGAUAAAAAGUCUUUUUAUGAACUAAAUAUUGGAGAAUAUUCUGGCACAGCUGGAGAUUCCCUGUCAGGAACUU; value = 0.41

Block 3 — technique: universal PBM; form: double-stranded DNA, one strand shown; sample: in vitro; tested at: not given; direction: higher = stronger binding; endpoint: E-score
Target: Sal-like protein 4, full length isoform B (SALL4, Homo sapiens, UniProt Q9UJQ4-2, residues 1-616)
Notes: 8-mer, flanks averaged, mean of replicates
Sequence = AGAACTCG; value = -0.0708
Sequence = CCGACAGG; value = -0.136
Sequence = AACACATG; value = 0.196
Sequence = ACGCAGTG; value = -0.238
Sequence = CCTACCTA; value = 0.0839
Sequence = GTCTTAAC; value = 0.0502
Sequence = GTAGTGCA; value = 0.074
Sequence = GCCACTAA; value = -0.0226
Sequence = ATAAAAGC; value = 0.236
Sequence = GTAAACAC; value = 0.0921
Sequence = ATTTGTTA; value = 0.254
Sequence = ATAGGCTG; value = -0.0039
Sequence = TGGCTACA; value = 0.151
Sequence = AGCCAGGA; value = -0.144
Sequence = CACGTTGC; value = -0.176
Sequence = ATGGGGAA; value = -0.017
Sequence = ATCCTCGC; value = -0.233
Sequence = ATTTAAGG; value = 0.0462

Block 4 — technique: protein binding microarray; form: double-stranded DNA, one strand shown; sample: in vitro; tested at: not given; relative to: not given; direction: higher = stronger binding; endpoint: E-score
Target: Histone acetyltransferase KAT6A, both winged helices, GST fusion (KAT6A, Homo sapiens, UniProt Q92794, residues 1-181)
Notes: 8-mer, flanks averaged, mean of 2 arrays, mostly near background
Construct (chain): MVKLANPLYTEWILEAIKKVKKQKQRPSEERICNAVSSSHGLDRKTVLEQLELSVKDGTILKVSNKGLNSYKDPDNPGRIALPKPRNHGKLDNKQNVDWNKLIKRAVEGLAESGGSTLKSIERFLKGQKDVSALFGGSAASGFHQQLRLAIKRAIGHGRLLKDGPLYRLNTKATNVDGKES
Sequence = CCTGCGTC; value = -0.0113
Sequence = CTTGTCCA; value = -0.115
Sequence = TATCTAGA; value = -0.159
Sequence = ATTCTAAC; value = -0.154
Sequence = AATCCCAC; value = -0.245
Sequence = CTGGCCGC; value = 0.119
Sequence = CTTGGCGA; value = -0.0133
Sequence = AAGCAGCC; value = -0.0531
Sequence = AAGCGGTG; value = 0.12
Sequence = ATCGTGCG; value = 0.17
Sequence = GTCACCCA; value = -0.109
Sequence = ATTAAACG; value = 0.0175
Sequence = ACCATCAT; value = -0.148
Sequence = GATTGTAC; value = -0.0657
Sequence = GAGATAAC; value = -0.0563
Sequence = ACGTGTAT; value = -0.0531
Sequence = ATTTATGC; value = -0.055
Sequence = CCTCTTGC; value = -0.0828
Sequence = AAGGACGA; value = -0.0592
Sequence = CATTAGTC; value = -0.179

Block 5 — technique: RNA Bind-n-Seq; form: RNA; sample: in vitro; tested at: 200 nM; notes: whole 134-nt RNA, ends assumed; together with: 150 mM KCl; relative to: input library; direction: higher = stronger binding; endpoint: log2 enrichment
Target: Ras GTPase-activating protein-binding protein 1, full length (G3BP1, Homo sapiens, UniProt Q13283)
Chain of UniProt Q13283 (whole entry, looked up): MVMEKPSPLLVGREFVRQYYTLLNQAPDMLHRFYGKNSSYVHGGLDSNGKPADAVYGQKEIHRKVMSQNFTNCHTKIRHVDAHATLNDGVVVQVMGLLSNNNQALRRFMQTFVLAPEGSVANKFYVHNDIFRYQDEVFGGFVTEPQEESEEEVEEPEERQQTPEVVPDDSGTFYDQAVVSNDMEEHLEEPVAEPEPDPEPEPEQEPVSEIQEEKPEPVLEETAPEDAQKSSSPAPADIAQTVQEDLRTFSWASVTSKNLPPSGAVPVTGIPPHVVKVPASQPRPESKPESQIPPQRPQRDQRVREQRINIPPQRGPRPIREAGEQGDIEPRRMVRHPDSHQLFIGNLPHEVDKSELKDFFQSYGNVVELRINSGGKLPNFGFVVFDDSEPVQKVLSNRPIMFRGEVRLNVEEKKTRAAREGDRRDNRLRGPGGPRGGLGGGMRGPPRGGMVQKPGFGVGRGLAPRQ
Constant ends, left off below: GGGAGUUCUACAGUCCGACGAUC … UGGAAUUCUCGGGUGUCAAGG
Sequence = UAACUUUAGAGGAGGAUCUGAUGGAUAUGGCAGUGGACGUGGAUUUGGGGAUGGCUAUAAUGGGUAUGGAGGAGGACCUGGAGGUAGCAA; value = 0.186
Sequence = UCAAGUCCUGUGCUACACAUCGUAUGUACCGAAUCGGGCCCGGCCCGGGCCCGGGAAAGUAUUAUGUUACGCCGUUCGGAUCUGCACUUC; value = -0.948
Sequence = UGGACGAUGAAGAGGAAACAAUUGAAGAGGAGGAAGCAAAUGAAGGCGUUGUGGACCACCAAACAGAACUUUCUAAUUUAGCCAAGGAAG; value = 0.436
Sequence = CCUGUGCUACACAUCGUAUGUACCGAAUCGGCCCCCCCGGCCCCCCCGGGGCCCCCCCGGGAAAGUAUUAUGUUACGCCGUUCGGAUCUG; value = -0.0579
Sequence = ACCAUGCAGGUGGGCAUCUUUGGGAAGUGGGGCAAGGGGGGGAUAGGGAGGGGGGUAACACUUUAAAAACAGGUGGUCCCAGGUCGUUUC; value = 1.34
Sequence = ACCAUGCAGGUGGGCAUCUUUGGGAAGUGGGGCAAGGGGGGGAUAUGGAGGGGGGUAACACUUUGGGAACAGGUGGUCCCAGGUCGUUUC; value = 1.02
Sequence = UUUAAUGUCUGCGGCACAAUGCCUGUCUGUGGGACCAUCCUGGGAAAACCUGCUUCUGGCUGUGAGGCAGAAACCCAAACUGAAGAGCUC; value = 0.411
Sequence = UGGCCCUGGUGGCAUGCGGGGAGGAAGAGGUGGCCUCAUGGAUCGUGGUGGUCCCGGUGGAAUGUUCAAAGGUGGCCGUGGUGGAGACAG; value = 0.243
Sequence = GUCCUGUGCUACACAUCGUAUGUACCGAAUCGGCCCCCGGGCCCCCGGGGCCCCCGGGAAAGUAUUAUGUUACGCCGUUCGGAUCUGCAC; value = -0.874
Sequence = GUCCUGUGCUACACAUCGUAUGUACCGAAUCGGGGUGGGGAAAGGGGAAAAAAAGGGGAAAGUAUUAUGUUACGCCGUUCGGAUCUGCAC; value = 0.437
Sequence = CUCAAGUCCUGUGCUACACAUCGUAUGUACCGAAUCGGGGCCGGCCGGGCCGGGAAAGUAUUAUGUUACGCCGUUCGGAUCUGCACUUCC; value = -0.312
Sequence = CAAGUCCUGUGCUACACAUCGUAUGUACCGAAUCGGUGGAAAAAAAGGUUUUUGGAAAGUAUUAUGUUACGCCGUUCGGAUCUGCACUUC; value = -1.05
Sequence = UAUAUUGAGGUAUAGAGCUAUUCUUUGUAGGUACCCUGGUGAGACCGAUACAAAUAUGCCCCUCCCCAUAAUGGAAUACUAAUUUUUAUU; value = -0.453
Sequence = GUCCUGUGCUACACAUCGUAUGUACCGAAUCGGGAAAAAAAGGGAAAAAGGGAAAGGGAAAGUAUUAUGUUACGCCGUUCGGAUCUGCAC; value = -0.349
